# Experimental data of several laboratories.
# Parts stem from different laboratories: compare values within a part only.

# Block 1
# Cell line: yeast with cyclin D1-Cln2 chimera
# Effect on: cell growth
# Action: binder
# Method: competitive growth deep sequencing
# Molecule type: peptide
# Concentration: concentration not given
# Notes: peptide tiling library
# Direction: direction not given
Molecule,growth enrichment score
SGYLTDENEVGFRG,1.19
DGCSPIKNWSPMRL,1.37
RNRGPKLNAMLRLGVL,-1.89
NNIRKALSFDNRGEEH,-0.18
TSPGPVLLHPSPSTTQ,1.33
VLVRTSACRSLFGPVD,0.188
QNPCGSKACRRLFGPV,1.36
AEHPKPSACRNLFGPV,1.14
TRRRLFVENDSP,0.183
LENIEPLQVSFAVLSS,1.1
FQDSGYNELKSCSFDN,1.26
NFETPEAETPIRSPFK,1.29
GAEELEDLVHFSVSEL,1.45
VRDLSYRLVFLACCVA,-0.679
KDDDKAWEYEERDRRS,1.32
VLPGGVPSPGASLTSM,1.18
PQWPCGKHKRVLIFAS,-1.18

# Block 2
# Target: Fragile X messenger ribonucleoprotein 1, C-terminal low-complexity region (Fmr1, Mus musculus, UniProt P35922)
# Method: RNA Bind-n-Seq
# Molecule type: RNA
# Sample: in vitro
# Concentration: 200 nM
# Notes: whole 134-nt RNA, ends assumed
# With: 150 mM LiCl
# Baseline: input library
# Direction: higher = stronger binding
# Each molecule: 7-deaza-guanosine replaces G
Strand,log2 enrichment
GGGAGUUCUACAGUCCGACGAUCUCAAGUCCUGUGCUACACAUCGUAUGUACCGAAUCGGAAAGGAAAAAGGUUUGGAAAGUAUUAUGUUACGCCGUUCGGAUCUGCACUUCCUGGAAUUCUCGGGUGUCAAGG,-2.01
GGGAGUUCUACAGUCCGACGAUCUCCUGUGCUACACAUCGUAUGUACCGAAUCGGGGUUUUUUUGGGGUUUUUGGGGAGGGGAAAGUAUUAUGUUACGCCGUUCGGAUCUGCAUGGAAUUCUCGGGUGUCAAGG,-0.338
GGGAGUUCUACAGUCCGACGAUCUCCUGUGCUACACAUCGUAUGUACCGAAUCGGGGAAAAAAGGAAAAAAGGGGAAAAAAGGAAAGUAUUAUGUUACGCCGUUCGGAUCUGCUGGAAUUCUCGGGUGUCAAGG,-0.637
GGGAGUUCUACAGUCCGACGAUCAGUCCUGUGCUACACAUCGUAUGUACCGAAUCGGAAAAAGGGAAAAAGGGGAAAAAGGAAAGUAUUAUGUUACGCCGUUCGGAUCUGCACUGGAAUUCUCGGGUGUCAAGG,-0.846
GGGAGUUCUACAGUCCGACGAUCCUCAAGUCCUGUGCUACACAUCGUAUGUACCGAAUCGGAAAAAGGAAAGGUGGAAAGUAUUAUGUUACGCCGUUCGGAUCUGCACUUCCAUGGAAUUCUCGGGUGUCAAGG,-0.832
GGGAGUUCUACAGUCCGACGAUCGUCCUGUGCUACACAUCGUAUGUACCGAAUCGGUUUUUUGGUUUUUUGGGUUUUUUGGAAAGUAUUAUGUUACGCCGUUCGGAUCUGCACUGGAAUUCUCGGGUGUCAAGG,-1.41
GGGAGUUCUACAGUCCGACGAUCCACAGACAACACGCACCCACACAGACACAGAGGGAAGGGGUUGGGAUGGGGACAGGGUGCACAGCAGGGCGGGGUAGGACGCCAGCCCCUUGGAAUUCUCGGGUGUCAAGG,0.00526
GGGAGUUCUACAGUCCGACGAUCCCUGUGCUACACAUCGUAUGUACCGAAUCGGUUUUUUUGGUUUUUUUGGUUUUUUUGGGGAAAGUAUUAUGUUACGCCGUUCGGAUCUGCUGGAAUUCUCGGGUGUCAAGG,-1.29
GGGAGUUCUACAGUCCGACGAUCGCAGGAAGUAAAAACAAAUGGAAAUGCUUCGGAUCGUGGCAGGGGUGGGGGUUGCUAAGGAAAGGGUGGGAUGGGAGUGGGUAAAGAGUUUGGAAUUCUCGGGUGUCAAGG,1.38
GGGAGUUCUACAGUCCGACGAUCCCUGUGCUACACAUCGUAUGUACCGAAUCGGGGCCCCCCCGGCCCCCCCGGCCCCCCCGGAAAGUAUUAUGUUACGCCGUUCGGAUCUGCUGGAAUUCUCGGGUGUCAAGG,1.07
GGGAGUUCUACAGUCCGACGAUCUGUAACCUGGGGAUUCUCUCAACUCUCUUGUCCCACACAGACUUCUAUGAGGAAAUCCAGGAGUUUGUGAAAGAUGUCUUUUCACCUAUAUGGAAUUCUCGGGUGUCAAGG,1.09

# Block 3
# Target: Prothrombin, mature alpha-thrombin (F2, Homo sapiens, UniProt P00734)
# Method: aptamer microarray, sandwich
# Molecule type: DNA with 2'F-ANA
# Sample: in vitro
# Concentration: 200 nM
# Notes: whole 15-mer aptamer, many near background
# With: Cy3 exosite-II aptamer, 400 nM
# Direction: higher = stronger binding
# Strand: GGTTGGTGTGGTTGG
Modification,mean fluorescence intensity [a.u.]
2'F-ANA at 2 3 6 8 9 10 12 13,333
2'F-ANA at 3 5 6 9 14 15,49.5
2'F-ANA at 3 4 5 7 9 10 12 14 15,52
2'F-ANA at 1 2 3 7 9 11 12,360
2'F-ANA at 2 3 7 9 10 11 15,323
2'F-ANA at 1 2 4 5 6 8 12 13 14,50.9
2'F-ANA at 2 3 4 8 9 11 13 14,303
2'F-ANA at 7 10 12 15,240
2'F-ANA at 2 3 5 9 11 15,77.3
2'F-ANA at 3 6 7 8 9 10 12 14,439
2'F-ANA at 7 10 11 13 14,137
2'F-ANA at 1 2 6 7 8 9 10 12 13 14 15,50.3
2'F-ANA at 1 4 5 7 9 10 13,50.8
2'F-ANA at 3 7 9 10 12 13,708
2'F-ANA at 1 4 6 7 8 9,140
2'F-ANA at 1 2 5 6 7 9 10 14,50
2'F-ANA at 1 4 5 7 9 11 12 15,75.2
2'F-ANA at 1 4 6 8 9 10 12,64.7
2'F-ANA at 7 8 12 14 15,250

# Block 4
# Target: Histone acetyltransferase KAT6A, winged helix 1, GST fusion (KAT6A, Homo sapiens, UniProt Q92794, residues 1-85)
# Method: protein binding microarray
# Molecule type: double-stranded DNA, one strand shown
# Sample: in vitro
# Concentration: not given
# Notes: 8-mer, flanks averaged, mean of 2 arrays, mostly near background
# Baseline: not given
# Direction: higher = stronger binding
# Target sequence (chain): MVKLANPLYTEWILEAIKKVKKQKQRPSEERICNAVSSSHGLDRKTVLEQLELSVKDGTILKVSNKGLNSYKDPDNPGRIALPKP
Strand,E-score
AGTTATCG,-0.00329
GAGCCTCA,0.0915
ACCTGCCC,-0.0742
CTAGGCTA,0.0929
CGCTTCGC,0.314
GAAGGCCC,0.0542
CAAAAAGC,0.0194
AGGGACCT,-0.0622
ACATATAT,-0.0731
ACTACCAA,-0.149
CTTCTTAA,-0.141
ACAACGCG,0.287
CTTGTAAA,-0.207
AGATAACC,-0.138
ATTCGCCC,0.112
CTCTAGAG,-0.0322
TACCGTCA,0.233
CAGTTCCG,0.224
AGGCGAGG,-0.0701
AAAGTCCA,-0.216
AGAGGGCC,0.0643

# Mixed results
Molecule,target,assay,test system,conditions,scale,endpoint,result
"PhoQ, residues 284 288 289 292 302 303 WVSSAF","PhoP, residues 12 14 15 18 19 SMASL (Escherichia coli, UniProt P23836)","Sort-seq, item: YFP reporter",E. coli,"PhoQ-PhoP variant library, with: 10 µM Mg2+","baseline: high Mg2+ state, higher = stronger signaling",fold induction,7.92

# Excerpt of the above (block 1):
Molecule,growth enrichment score
FQDSGYNELKSCSFDN,1.26
NFETPEAETPIRSPFK,1.29
GAEELEDLVHFSVSEL,1.45
VRDLSYRLVFLACCVA,-0.679
KDDDKAWEYEERDRRS,1.32
VLPGGVPSPGASLTSM,1.18
PQWPCGKHKRVLIFAS,-1.18
